Measured values gathered from unrelated publications.
A part holds a random share of what one study measured. Positions count from the first letter of the parent shown.

Set 1 — method: RNA Bind-n-Seq; molecule type: RNA; sample: in vitro; tested at: 365 nM; baseline: no-protein control; reading: higher = stronger binding
Target: RNA binding protein fox-1 homolog 2, RRM domain, GST-SBP tag (RBFOX2, Homo sapiens, UniProt O43251-10, residues 100-194)
Notes: natural RNA segment, single round, ends assumed
Constant ends, left off below: GGGAGUUCUACAGUCCGACGAUC … UGGAAUUCUCGGGUGCCAA
Construct (chain): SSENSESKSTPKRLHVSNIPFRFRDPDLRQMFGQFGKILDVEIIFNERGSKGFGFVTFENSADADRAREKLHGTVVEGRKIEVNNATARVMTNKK
Strand	RBNS enrichment (R)
CACGUAGAGGCCCAGAGAGUCCCUGGGGGUUCUGCUCUGACCGUGUGGGUGGUGAUCCUUGUCAGGAUGUACAGUCCUUGCUCCCACCCCAUCCGGGAUGGCCGCCUGUC	0.394
GUAGGAAAUGAGUGACAUCAAGUCAGUUUGCCUAGAAAUCCCAUGUCUUCCUGGAAACCUAAAGGGAAACAUGAUCUUGUCCUGAAAAUGAUAUUUUAGAGUCUGAGUGA	0.522
GGAAAAAACCUACAUGCUACAAGCCACCAUAUGCACAGACUAUACAGUGAGUUGAGUUGGCUCUCCCACAGUCUUUGAGGUGAAUUACAAAAGUCCAGCCAUUAUCAUCC	0.666
UAUUACCAUAGUGCGAUGUUGUUUUGUGCUAUUUUGAACAAUUAAAAAGACUUUUUUUGAAAUAACCUCUGGUAUUUACCCGUGUGUCAAGAGUGUCUUGUGAGCCAGGC	0.308
GCAUGGUGGUGCAUACCUAUAGUCCUGGCUAUUUGGGAGGCUGAGGCAGGAGGAUUGCUUUAGCCCUGGAGGUCGAGGCUGCAGUAAGCCAUGAUUGCGCCACUGCACUC	0.937
GAGUUCAGUUCAACAGAGCUGCAGCUUGGGAAGCCCUGUAAGCCCACAGCUUCCUCUCUUAUAUUAAUUGAUGGAAUUUUACUGUAUGUGCCUCUGUACAAGAUGUAGCU	0.328
UAUUAAAAACUUAUUUUCCCUCGGGUUUGUUCUCGUUUUAUGUUUUUGUUGUUGUUGUUUUGUUAGCUUUCCUACUUCCACUGAGUAGCAUUUUGUAGAAUAAAAUUAAU	0.664
UGAUGGUGUUUAUGAACAUGCCGUAGUGCCUUUAUGGCCAGUUUGAGUCCUGCCUACUUUGACUUUUACGUUCCCAUUCCUGUGUUACCACCUUCCUCCCGAUUUGUUCA	0.706

Set 2 — method: RNA Bind-n-Seq; molecule type: RNA; sample: in vitro; tested at: 1 µM; notes: whole 134-nt RNA, ends assumed; with: 150 mM KCl; baseline: input library; reading: higher = stronger binding
Target: Ras GTPase-activating protein-binding protein 1, RRM domain (G3BP1, Homo sapiens, UniProt Q13283)
Sequence of UniProt Q13283 (whole entry, looked up): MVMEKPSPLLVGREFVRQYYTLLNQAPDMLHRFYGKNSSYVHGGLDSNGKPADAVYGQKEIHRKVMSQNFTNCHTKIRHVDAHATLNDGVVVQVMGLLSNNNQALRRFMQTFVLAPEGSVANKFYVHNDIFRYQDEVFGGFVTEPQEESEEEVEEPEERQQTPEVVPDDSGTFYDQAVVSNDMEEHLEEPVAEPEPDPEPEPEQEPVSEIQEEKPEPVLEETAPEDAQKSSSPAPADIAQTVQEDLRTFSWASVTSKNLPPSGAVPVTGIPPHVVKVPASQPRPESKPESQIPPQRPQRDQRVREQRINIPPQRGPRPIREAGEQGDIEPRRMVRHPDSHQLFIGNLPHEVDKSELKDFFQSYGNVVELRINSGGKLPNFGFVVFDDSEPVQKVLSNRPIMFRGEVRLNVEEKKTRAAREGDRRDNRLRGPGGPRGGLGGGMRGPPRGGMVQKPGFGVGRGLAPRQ
Constant ends, left off below: GGGAGUUCUACAGUCCGACGAUC … UGGAAUUCUCGGGUGUCAAGG
Strand	log2 enrichment
CUCAAGUCCUGUGCUACACAUCGUAUGUACCGAAUCGGCCGGGGCCGGGCCGGAAAGUAUUAUGUUACGCCGUUCGGAUCUGCACUUCCA	-0.492
CCUGUGCUACACAUCGUAUGUACCGAAUCGGGGUUUUUUUGGGGAAAGGGGUUUUUGGGGAAAGUAUUAUGUUACGCCGUUCGGAUCUGC	0.509
UUGAUGCCCCAGAUGUGGAUGUUCAUGGCCCAGACUGGCACCUGAAGAUGCCUAAGAUGAAAAUGCCCAAGUUCAGCAUGCCUGGCUUCA	0.0728
CACAGACAACACGCACCCACACCGACACAGAGGGAAGGGGUUGGGAUGGGGACAGGGUGCACAGCAGGGCGGGGUAGGACCCCAGCCCCU	-0.149
GUCCUGUGCUACACAUCGUAUGUACCGAAUCGGGUUUUUGGGAAAAAAAGGGAAAGGGAAAGUAUUAUGUUACGCCGUUCGGAUCUGCAC	0.0427
GUCCUGUGCUACACAUCGUAUGUACCGAAUCGGGGAAAAAAAGGGGAGGGGAAAGGGGAAAGUAUUAUGUUACGCCGUUCGGAUCUGCAC	0.997
UUCAGGAUUGUGAGGGUGAAACUCCCAUUCACAAGGCAGCUCGCUCUGGGAGCCUAGAAUGCAUCAGUGCCCUUGUGGCGAAUGGGGCUC	-0.348
GCAGGAAGUAAAAACAAAUGGAAAUGCUUCGGAUAGUGGCAGGGGUGGGGGUUGCUAAGGAAAGGGUGGGAUGGGAGUGGGUACAGAGUU	0.498
UGGCCCUGGUGGCAUGCGGGGAGGAAGAGGUGGCCUCAUGGAUCGUGGUGGUCCCGGUGAAAUGUUCAGAGGUGGCCGUGGUGGAGACAG	0.822

Set 3 — method: DHFR PCA, deep sequencing; sample: yeast; with: (+)-ABA 0.11 µM; baseline: wild-type fitted maximum; reading: higher = stronger binding
Target: ABI1, truncated, D143A, DHFR fusion (Arabidopsis thaliana)
Notes: methotrexate growth selection, single substitutions
Starting sequence: PYL1, truncated, DHFR fusion (Arabidopsis thaliana); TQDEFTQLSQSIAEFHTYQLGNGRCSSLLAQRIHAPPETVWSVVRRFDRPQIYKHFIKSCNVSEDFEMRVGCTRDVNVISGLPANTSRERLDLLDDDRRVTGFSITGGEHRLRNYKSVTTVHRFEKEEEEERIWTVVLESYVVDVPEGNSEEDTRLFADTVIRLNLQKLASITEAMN
Substitution	relative binding score
G21R	24.8%
T39R	24.7%
L169E	0.0345%
G102E	1.11%
Q2P	67.7%
I52H	4.76%
V40H	5.72%
E152R	1.84%
C72M	35.8%
V143D	-1.24%
D153R	-1.65%
I57A	1.84%
D92N	5.13%
K168W	25.7%
E130A	34.1%
F103H	-3.01%
E147Q	15.4%
E4F	17.4%
V40D	-6.4%
S26A	20.1%
A30T	18.8%

Set 4 — method: universal PBM; molecule type: double-stranded DNA, one strand shown; sample: in vitro; tested at: not given; reading: higher = stronger binding
Target: Sal-like protein 4, full length isoform B (SALL4, Homo sapiens, UniProt Q9UJQ4-2, residues 1-616)
Notes: 8-mer, flanks averaged, mean of replicates
Strand	E-score
CGCCTGAA	-0.181
CAATAGGC	0.0315
CTAGTGGC	-0.0669
CGTAACCC	-0.168
CCTGGTAC	-0.201
GAGCATGC	-0.114
GCTTGGGA	-0.131
TAAGTGGA	0.154
ACAAGGTG	0.00402
ACTGTCAC	0.044
GGTGCCAA	-0.171
CCGGAGAA	-0.201
AAGGTATC	-0.0133
CGGACCAG	-0.287
CGGTAACG	-0.102
ATTCCTGC	0.052
CGATCACA	0.0997
GGTTACAC	-0.0348
GGGCCGGA	-0.329
ACTCTGTC	-0.0833
CCCTGAAA	0.036
GTATGGAA	0.0746
CCACTTCC	-0.0999
AATCTTGT	0.137
AGCAGACA	-0.0542

Further values, each from its own experiment
Molecule	target	assay	test system	setting	scale	quantity	result
PhoQ, residues 284 288 289 292 302 303 SSTMSV	PhoP, residues 12 14 15 18 19 LHHSG (Escherichia coli, UniProt P23836)	Sort-seq, item: YFP reporter	E. coli	PhoQ-PhoP variant library, with: 10 µM Mg2+	baseline: high Mg2+ state, higher = stronger signaling	fold induction	10.8

Excerpt of the above (set 3):
Substitution	relative binding score
L169E	0.0345%
D92N	5.13%
E147Q	15.4%
V40D	-6.4%
